# Assay results from different studies.
# Each line is one published result; not all experiments were run side by side. Values joined by “and” are separate records of one study, mostly repeats; a detail may differ. ± marks the error that the study gave.
Structure (SMILES),cell line,assay,system,setting,how to read,quantity,value
O=c1n(CCNCCOS(=O)(=O)c2ccccc2)c(=O)n(S(=O)(=O)c2ccccc2)c(=O)n1S(=O)(=O)c1ccccc1,A549,"cell growth or viability, MTT",,"100 µg/mL, 48 h",,viability,28.2%
COc1ccccc1-c1ccncc1C(=O)Nc1nnc(OCc2ccc(Cl)cc2)s1,RPE-1 BRCA1 WT parental,,,"0.5 µM, average of 2 runs",reference: untreated,colony survival,83.9%
Cc1cc(Oc2nc(N3CC[C@@H](c4ccncc4)C3)ncc2F)[nH]n1,T24,cell proliferation,bladder cancer,,,IC50,> 100 µM
CCCNC(=O)[C@H]1O[C@@H]1C(=O)N[C@H](C(=O)N1CCC[C@H]1C(=O)OCC1=C2C(C)=CC(C)=[N+]2[B-](C)(C)n2c(C)cc(C)c21)[C@@H](C)CC,MDA-MB-231,MTT,,,reference: dark over light,phototherapeutic index,> 30
N[C@H](C(=O)N1CCCC1)C1CCN(c2nccc3c(-c4ncc(Cl)cc4Cl)cccc23)CC1,human neutrophils,"Western blot densitometry, measured: CitH3 band 6 over GAPDH",,"0.1 µM, unit not given, together with: ionomycin 5 µM",reference: GAPDH loading control,citrullinated histone H3 level,174000 and 163000
CSCC[C@H](N)C(=O)N[C@@H](C)C(=O)N[C@@H](Cc1c[nH]c2ccccc12)C(=O)N[C@@H](Cc1c[nH]cn1)C(=O)N[C@@H](CC(=O)O)C(=O)N[C@@H](CC(=O)O)C(=O)N[C@@H](CCC(=O)O)C(=O)N[C@@H](CCC(=O)O)C(=O)N[C@@H](Cc1ccccc1)C(=O)N[C@@H](C)C(=O)N[C@@H](CCCNC(=N)N)C(=O)N[C@@H](CCCNC(=N)N)C(=O)N[C@@H](CCCNC(=N)N)C(=O)N[C@@H](CCCNC(=N)N)C(=O)NCCCCCC(=O)NCCCCC(NC(=O)CCCCCNC(=O)[C@H](CCCNC(=N)N)NC(=O)[C@H](CCCNC(=N)N)NC(=O)[C@H](CCCNC(=N)N)NC(=O)[C@H](CCCNC(=N)N)NC(=O)[C@H](C)NC(=O)[C@H](Cc1ccccc1)NC(=O)[C@H](CCC(=O)O)NC(=O)[C@H](CCC(=O)O)NC(=O)[C@H](CC(=O)O)NC(=O)[C@H](CC(=O)O)NC(=O)[C@H](Cc1c[nH]cn1)NC(=O)[C@H](Cc1c[nH]c2ccccc12)NC(=O)[C@H](C)NC(=O)[C@@H](N)CCSC)C(=O)NCCCCC(NC(=O)C(CCCCNC(=O)CCCCCNC(=O)[C@H](CCCNC(=N)N)NC(=O)[C@H](CCCNC(=N)N)NC(=O)[C@H](CCCNC(=N)N)NC(=O)[C@H](CCCNC(=N)N)NC(=O)[C@H](C)NC(=O)[C@H](Cc1ccccc1)NC(=O)[C@H](CCC(=O)O)NC(=O)[C@H](CCC(=O)O)NC(=O)[C@H](CC(=O)O)NC(=O)[C@H](CC(=O)O)NC(=O)[C@H](Cc1c[nH]cn1)NC(=O)[C@H](Cc1c[nH]c2ccccc12)NC(=O)[C@H](C)NC(=O)[C@@H](N)CCSC)NC(=O)CCCCCNC(=O)[C@H](CCCNC(=N)N)NC(=O)[C@H](CCCNC(=N)N)NC(=O)[C@H](CCCNC(=N)N)NC(=O)[C@H](CCCNC(=N)N)NC(=O)[C@H](C)NC(=O)[C@H](Cc1ccccc1)NC(=O)[C@H](CCC(=O)O)NC(=O)[C@H](CCC(=O)O)NC(=O)[C@H](CC(=O)O)NC(=O)[C@H](CC(=O)O)NC(=O)[C@H](Cc1c[nH]cn1)NC(=O)[C@H](Cc1c[nH]c2ccccc12)NC(=O)[C@H](C)NC(=O)[C@@H](N)CCSC)C(N)=O (stereo partly drawn),mouse bone marrow macrophages,immunocytochemistry,,"3 µM, together with: RANKL",,nuclei with nuclear NFATc1,79%
CC(C)(C)C(=O)OCOP(=O)(OCOC(=O)C(C)(C)C)C1CCCN(O)C1=O (stereo not drawn),UO-31,,,,,log TGI,-5.19 log M
CC(=O)NCSC[C@H](NC(=O)[C@@H]1CCCN1C(=O)[C@H](C)NC(=O)[C@@H](NC(=O)CNC(=O)[C@@H](NC(=O)[C@H](Cc1c[nH]c2ccccc12)NC(=O)[C@H](C)NC(=O)CNC(=O)[C@H](CO)NC(=O)[C@H](C)NC(=O)[C@@H]1CCCN1C(=O)[C@H](Cc1c[nH]c2ccccc12)NC(=O)[C@H](C)NC(=O)[C@H](C)NC(=O)[C@@H](N)Cc1ccc(O)cc1)[C@@H](C)O)[C@@H](C)O)C(=O)N[C@@H](CO)C(=O)N[C@@H](C)C(=O)NCC(=O)N[C@H](C(=O)NCCOCCOCCOCCOCCOCCOCCOCCOCCOCCOCCOCCOCCC(=O)N[C@@H](CS)C(N)=O)[C@@H](C)O,BEAS-2B bronchial epithelial,"cell binding, phage binding, measured: output/input phage",,"10 min, 37 °C",reference: control phage,selectivity ratio,3.1 ± 0.67
O=C(C[Se]C(=O)c1ccco1)Nc1cccc(C(F)(F)F)c1,NCI60 breast subpanel,NCI60 five-dose screen,,,,CC50,62.6 µM
CC(C)CC(O)(CC(C)C)c1cn(C(=O)N2CCCC2)nn1,mouse T-cells,"protein abundance, unenriched SILAC proteomics, measured: Uqcrh",,"1 nM, 6 h, single tryptic peptide",reference: DMSO,SILAC ratio,1.08 and 0.71
O=C(C[Se]C(=O)c1cccs1)Nc1cccc(C(F)(F)F)c1,NCI60 CNS subpanel,NCI60 five-dose screen,,,,mean TGI,3.23 µM
O=C(O)c1ccc(-c2nc(-c3ccccc3Cl)c3sccn23)cc1,K562,"erythroid differentiation, flow cytometry",,"0.01 mM, 48 h, unit not given",reference: untreated,CD71 fluorescence intensity,1
CC(C)[C@H](NC(=O)[C@H](CCCNC(=N)N)NC(=O)[C@@H]1CCCN1C(=O)[C@@H](NC(=O)[C@H](C)NC(=O)[C@H](Cc1ccc(O)cc1)NC(=O)[C@H](CCC(N)=O)NC(=O)[C@H](CCCCN)NC(=O)[C@H](CCCNC(=N)N)NC(=O)[C@@H]1CCCN1C(=O)[C@H](CCC(=O)O)NC(=O)[C@@H](NC(=O)[C@H](C)N)[C@@H](C)O)[C@@H](C)O)C(=O)N[C@@H](Cc1ccccc1)C(=O)N[C@@H](Cc1c[nH]c2ccccc12)C(=O)N[C@H](C(=O)N[C@@H](CC(=O)O)C(=O)N[C@@H](C)C(=O)N1CCC[C@H]1C(=O)NCC(=O)NCCOCCOCCOCCOCCOCCOCCOCCOCCOCCOCCOCCOCCC(=O)N[C@@H](CS)C(N)=O)[C@@H](C)O,H1975 lung adenocarcinoma,"cell binding, phage binding, measured: output/input phage",,"10 min, 37 °C",reference: control phage,selectivity ratio,0.46 ± 0.14
O=C(C[Se]C(=O)c1ccc2ccccc2n1)Nc1cccc(C(F)(F)F)c1,NCI60 colon subpanel,NCI60 five-dose screen,,,,CC50,25.6 µM
CC1OC2OC3C4=C(OC3(C)C12O)C(=O)c1c(O)cccc1C4=O (stereo not drawn),HepG2,SRB,,"10 µg/mL, 48 h",negative values mean cell killing,growth percent,-64.6%
O=C(C[Se]C(=O)c1cccnc1Nc1cccc(C(F)(F)F)c1)Nc1cccc(C(F)(F)F)c1,NCI60 breast subpanel,NCI60 five-dose screen,,,,CC50,13.4 µM
CC1CCC2C(C)C(OC(=O)CCC(=O)N3CCC(Nc4ccc(S(=O)(=O)NC(=O)c5ccc(N6CCN(CC7=C(c8ccc(Cl)cc8)CC(C)(C)CC7)CC6)cc5Oc5cnc6[nH]ccc6c5)cc4[N+](=O)[O-])CC3)OC3OC4(C)CCC1C32OO4 (stereo not drawn),KCL-22,"annexin V/PI flow cytometry, measured: annexin V-/PI+",,"3.2 µM, 24 h",,necrotic cells,0.1%
O=C(Nc1cccs1)c1cccnc1,HCT-116 NMNAT1 knockout,cell viability,,,reference: NMNAT1 knockout over control sgRNA,IC50 fold increase,6 fold

# Excerpt of the above:
Structure (SMILES),cell line,assay,system,setting,how to read,quantity,value
CSCC[C@H](N)C(=O)N[C@@H](C)C(=O)N[C@@H](Cc1c[nH]c2ccccc12)C(=O)N[C@@H](Cc1c[nH]cn1)C(=O)N[C@@H](CC(=O)O)C(=O)N[C@@H](CC(=O)O)C(=O)N[C@@H](CCC(=O)O)C(=O)N[C@@H](CCC(=O)O)C(=O)N[C@@H](Cc1ccccc1)C(=O)N[C@@H](C)C(=O)N[C@@H](CCCNC(=N)N)C(=O)N[C@@H](CCCNC(=N)N)C(=O)N[C@@H](CCCNC(=N)N)C(=O)N[C@@H](CCCNC(=N)N)C(=O)NCCCCCC(=O)NCCCCC(NC(=O)CCCCCNC(=O)[C@H](CCCNC(=N)N)NC(=O)[C@H](CCCNC(=N)N)NC(=O)[C@H](CCCNC(=N)N)NC(=O)[C@H](CCCNC(=N)N)NC(=O)[C@H](C)NC(=O)[C@H](Cc1ccccc1)NC(=O)[C@H](CCC(=O)O)NC(=O)[C@H](CCC(=O)O)NC(=O)[C@H](CC(=O)O)NC(=O)[C@H](CC(=O)O)NC(=O)[C@H](Cc1c[nH]cn1)NC(=O)[C@H](Cc1c[nH]c2ccccc12)NC(=O)[C@H](C)NC(=O)[C@@H](N)CCSC)C(=O)NCCCCC(NC(=O)C(CCCCNC(=O)CCCCCNC(=O)[C@H](CCCNC(=N)N)NC(=O)[C@H](CCCNC(=N)N)NC(=O)[C@H](CCCNC(=N)N)NC(=O)[C@H](CCCNC(=N)N)NC(=O)[C@H](C)NC(=O)[C@H](Cc1ccccc1)NC(=O)[C@H](CCC(=O)O)NC(=O)[C@H](CCC(=O)O)NC(=O)[C@H](CC(=O)O)NC(=O)[C@H](CC(=O)O)NC(=O)[C@H](Cc1c[nH]cn1)NC(=O)[C@H](Cc1c[nH]c2ccccc12)NC(=O)[C@H](C)NC(=O)[C@@H](N)CCSC)NC(=O)CCCCCNC(=O)[C@H](CCCNC(=N)N)NC(=O)[C@H](CCCNC(=N)N)NC(=O)[C@H](CCCNC(=N)N)NC(=O)[C@H](CCCNC(=N)N)NC(=O)[C@H](C)NC(=O)[C@H](Cc1ccccc1)NC(=O)[C@H](CCC(=O)O)NC(=O)[C@H](CCC(=O)O)NC(=O)[C@H](CC(=O)O)NC(=O)[C@H](CC(=O)O)NC(=O)[C@H](Cc1c[nH]cn1)NC(=O)[C@H](Cc1c[nH]c2ccccc12)NC(=O)[C@H](C)NC(=O)[C@@H](N)CCSC)C(N)=O (stereo partly drawn),mouse bone marrow macrophages,immunocytochemistry,,"3 µM, together with: RANKL",,nuclei with nuclear NFATc1,79%
CC(C)(C)C(=O)OCOP(=O)(OCOC(=O)C(C)(C)C)C1CCCN(O)C1=O (stereo not drawn),UO-31,,,,,log TGI,-5.19 log M
CC(=O)NCSC[C@H](NC(=O)[C@@H]1CCCN1C(=O)[C@H](C)NC(=O)[C@@H](NC(=O)CNC(=O)[C@@H](NC(=O)[C@H](Cc1c[nH]c2ccccc12)NC(=O)[C@H](C)NC(=O)CNC(=O)[C@H](CO)NC(=O)[C@H](C)NC(=O)[C@@H]1CCCN1C(=O)[C@H](Cc1c[nH]c2ccccc12)NC(=O)[C@H](C)NC(=O)[C@H](C)NC(=O)[C@@H](N)Cc1ccc(O)cc1)[C@@H](C)O)[C@@H](C)O)C(=O)N[C@@H](CO)C(=O)N[C@@H](C)C(=O)NCC(=O)N[C@H](C(=O)NCCOCCOCCOCCOCCOCCOCCOCCOCCOCCOCCOCCOCCC(=O)N[C@@H](CS)C(N)=O)[C@@H](C)O,BEAS-2B bronchial epithelial,"cell binding, phage binding, measured: output/input phage",,"10 min, 37 °C",reference: control phage,selectivity ratio,3.1 ± 0.67
